Measured values pooled from the literature.
A part holds a random share of what one study measured.

Study 1
Target: Interferon regulatory factor 7, full length, phosphomimetic (IRF7, Homo sapiens, UniProt Q92985, residues 1-503, S101K/S471D/S472D/S475D/S476D/S477D/S483D/S484D/S487D)
UniProt Q92985, sequence (whole entry, unmodified, looked up): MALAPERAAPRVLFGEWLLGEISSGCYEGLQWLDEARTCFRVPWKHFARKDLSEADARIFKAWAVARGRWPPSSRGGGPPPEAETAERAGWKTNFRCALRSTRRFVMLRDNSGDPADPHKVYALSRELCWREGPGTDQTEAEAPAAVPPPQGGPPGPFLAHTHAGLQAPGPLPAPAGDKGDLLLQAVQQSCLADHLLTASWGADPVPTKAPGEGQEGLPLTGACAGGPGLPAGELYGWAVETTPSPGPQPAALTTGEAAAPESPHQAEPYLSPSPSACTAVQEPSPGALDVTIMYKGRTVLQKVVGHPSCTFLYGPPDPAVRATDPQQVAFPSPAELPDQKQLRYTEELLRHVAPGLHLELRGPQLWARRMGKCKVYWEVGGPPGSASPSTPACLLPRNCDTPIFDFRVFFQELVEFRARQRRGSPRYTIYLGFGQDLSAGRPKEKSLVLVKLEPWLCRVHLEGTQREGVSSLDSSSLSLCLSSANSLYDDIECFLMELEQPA
Method: protein-binding microarray
Molecule type: double-stranded DNA, one strand shown
Matrix: in vitro
Tested at: 250 nM
Notes: 60-bp whole probe
Together with: salmon DNA 0.4 mg/ml
Reference: random background probes
Reading: higher = stronger binding
All sequences stand within: GCCTAGCAC … GTCTTGATTCGCTTGACGCTGCTG
Oligonucleotide | log fluorescence
GACGAGTTCGGGTATCGAGACGTGCTA | 0.569 z-score
TTAGGACGGGACTTTCGGTTAGTGCTA | 0.662 z-score
GACAGACTGGACACTGGGGACGTGCTA | -0.723 z-score
TCAAGTTTTCTTTTCCAACTGTGCTAG | 3.13 z-score
TTGGGTATCCTTCTCCTTTAGTGCTAG | 0.25 z-score
TTACATTCCCCATTGTGTTGGTGCTAG | 1.07 z-score
AGATGAAAAGTGAAGCCTAGGTGCTAG | -0.649 z-score
TTAGGTCTCCGTCTCCTTTAGTGCTAG | 0.325 z-score
TCAATTTTCATTAACTGACTGTGCTAG | 0.66 z-score
CCACATATGCTTTTTAGAAAGTGCTAG | 0.533 z-score
TCATTTCTAATTTACTTACTGTGCTAG | 1.86 z-score
GACGGACTGCTTCTCTTGACGTGCTAG | -0.404 z-score
GACAAACTGGGGTATCGAGACGTGCTA | -0.199 z-score
TTAGATTTCGGGACCGGATTAGTGCTA | 0.882 z-score
CTAACTTTCCAATTGTCCTTGTGCTAG | 2.34 z-score

Study 2
Target: Prothrombin, mature alpha-thrombin (F2, Homo sapiens, UniProt P00734)
Method: aptamer microarray, sandwich
Molecule type: DNA with 2'F-ANA
Matrix: in vitro
Tested at: 200 nM
Notes: whole 15-mer aptamer, many near background
Together with: Cy3 exosite-II aptamer, 400 nM
Reading: higher = stronger binding
Oligonucleotide: GGTTGGTGTGGTTGG
Modification | mean fluorescence intensity
2'F-ANA at 2 3 7 8 9 10 11 13 14 | 266 a.u.
2'F-ANA at 2 3 4 5 10 14 15 | 49 a.u.
2'F-ANA at 3 7 8 9 10 12 15 | 662 a.u.
2'F-ANA at 2 4 5 7 8 9 11 13 14 | 43.8 a.u.
2'F-ANA at 1 3 7 8 12 13 14 | 163 a.u.
2'F-ANA at 3 5 11 12 13 15 | 187 a.u.
2'F-ANA at 2 5 7 8 10 11 12 14 15 | 45.5 a.u.
2'F-ANA at 3 4 5 8 9 10 11 12 14 15 | 57.2 a.u.
2'F-ANA at 2 5 7 8 9 13 15 | 74.8 a.u.
2'F-ANA at 1 2 3 8 12 13 14 15 | 103 a.u.
2'F-ANA at 1 3 4 6 8 12 13 14 | 83.5 a.u.
2'F-ANA at 1 3 4 5 8 12 | 175 a.u.
2'F-ANA at 2 3 4 6 8 9 10 15 | 192 a.u.
2'F-ANA at 1 2 4 8 10 11 | 49.5 a.u.

Study 3
Target: RING finger protein unkempt homolog, zinc fingers 1-6, GST-SBP tag (UNK, Homo sapiens, UniProt Q9C0B0, residues 30-357)
UniProt Q9C0B0, sequence (30-357, looked up): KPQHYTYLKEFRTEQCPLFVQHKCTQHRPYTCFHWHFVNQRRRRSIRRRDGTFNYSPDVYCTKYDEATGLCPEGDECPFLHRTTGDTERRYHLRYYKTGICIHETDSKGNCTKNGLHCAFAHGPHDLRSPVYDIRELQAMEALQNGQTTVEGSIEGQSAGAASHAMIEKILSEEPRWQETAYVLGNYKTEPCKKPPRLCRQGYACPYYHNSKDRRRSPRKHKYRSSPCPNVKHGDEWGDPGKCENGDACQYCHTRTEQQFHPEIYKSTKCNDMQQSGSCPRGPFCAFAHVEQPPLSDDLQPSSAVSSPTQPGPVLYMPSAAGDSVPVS
Method: RNA Bind-n-Seq
Molecule type: RNA
Matrix: in vitro
Tested at: not given
Notes: RNA with constant flanks, human-mouse chimeric sites, ends assumed
Reference: input RNA pool
Reading: higher = stronger binding
Oligonucleotide | bound/input enrichment [ratio]
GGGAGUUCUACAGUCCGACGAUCGUAAUGGACGUCAACACUGCUUUACAAGAGGUGCUGAAGACCGCCCUCAUCCACGAUGGCCUAGCACGUGGCAUACGCGAAGCUGCCAAAGCCUUAGACAAGCGCCAAGCCCAUCUGUGUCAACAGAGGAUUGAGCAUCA | 0.288
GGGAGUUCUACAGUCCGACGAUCAGAAUCUUGGGACUGUUUUACUUAAUUGGUCAUUGAUAGCUUAACAAGCAUGGAGAUAAGAUUAGAAAUCUUGACAUCAACAGGUAUUAAGCAGAAAAAACCAUGGCCCAGAGUAUCCUGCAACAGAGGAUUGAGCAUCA | 0.114
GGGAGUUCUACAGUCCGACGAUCAAAGUGAUAACCAUGUUUGUCCAACGACAGGUAUUUUCGGAGAGCAAGGAUGAGAUUGCGUUAGUCCUCUAUGGCACAGAUGGCACUGAUAAUGCCCUUGCUGGCAAGGACCAGUAUCAGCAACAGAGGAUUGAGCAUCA | 0.11
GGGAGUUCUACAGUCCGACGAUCUUGUGCAAUGAUGCUUGAGAUGGUUUUUGCAAAAGCAGAAAUCGCUGCAAGGUAAUCACAAUAGAUACAAGCGGUAUUUUAAACCUUUGAAAUAAAUGGAUGUAACUGUACCUUGGUACACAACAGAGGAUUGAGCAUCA | 0.263
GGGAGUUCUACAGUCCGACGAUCGUCAACAGCUGCCUCAAUCCCAUUCUCUACGCCUUCCUGGAUGAGAACUUCAAGGCCUGCUUCCGCAAGUUCUGCUGUGCUUCUGCCCUGCGCCGGGACGUGCAGGUGUCUGACCGCGUGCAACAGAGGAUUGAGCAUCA | 0.426
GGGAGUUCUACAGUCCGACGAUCGAAACAUUUAAAUUUAAAGAAGCUGUUGUUCUAGGAAGUACGGACUUUCUAGAAGAUGAUAUAGAAAAAAUUGUAGAAGAACUGGGGAAAGAAUACAAGGGCAACGCCUACCAUCUGAUGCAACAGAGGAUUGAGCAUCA | 1.39
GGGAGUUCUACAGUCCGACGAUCGAGUCGAGCAAACUUGAAACUACAGAAUAUCUUGCAGCCUCAGUGUUCACUUGCUUGGCGAUAGCAUUGGGGUUUUAUAGGUUCUGGAAGGAGAACUGACGAUGAUGCUGCCGCUGCUGCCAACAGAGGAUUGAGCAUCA | 0.155
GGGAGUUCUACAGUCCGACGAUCUACUACUAUGAUGGUGAUAUUGGCAAUUAUUAUUAUGGCCAGGGUCAUCCCAUGAAGCCUCAUAGAAUCCGCAUGACCCAUAACUUGCUGCUAAAUUAUGGUUUAUACCGAAAAAUGGAACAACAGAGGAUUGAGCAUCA | 0.182
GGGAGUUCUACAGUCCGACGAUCCCCUCCCCGGGCCACCCACCCCUCCCGGCUCCCCGCCGAGAUCCAGGUUUCUUCUUAUUUCAUAGCCAAUAAGAAAAAUGUUCUACGCACAUUUUGUCCUCAGUAAAAGAGGGCCUCUGGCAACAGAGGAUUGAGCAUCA | 0.881
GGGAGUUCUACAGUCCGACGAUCCUCAGAGAUGUGGCAUAUCAGUAUGUGAAAAAGGGGGCUCGUAUAUUUUUGGAAGGGAAAGUGGACUAUGGCGAGUACAUGGAUAAAAACAAUGUGAGGCGGCAAGCAACAACAAUCAUACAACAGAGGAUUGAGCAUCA | 0.362
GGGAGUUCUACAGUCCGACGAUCCUGAGGAUACCACUGAAGAGACCUUAAAAGAAUCAUUUUGACGGCUCGUUCGUGCAAGAAUAGUCACUGAUCGGGAAACUGGUUCUUCCAAAGGGUUUGGUUUUGUAGACUUUAAUAGUGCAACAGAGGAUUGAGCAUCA | 0.763

Further values, each from its own experiment
Substance | target | assay | test system | setting | how to read | endpoint | result
PhoQ, residues 284 288 289 292 302 303 STVVAA | PhoP, residues 12 14 15 18 19 NQGLL (Escherichia coli, UniProt P23836) | Sort-seq, refers to: YFP reporter | E. coli | PhoQ-PhoP variant library, together with: 10 µM Mg2+ | reference: high Mg2+ state, higher = stronger signaling | fold induction | 2.11

Repeated from above (study 3):
Oligonucleotide | bound/input enrichment [ratio]
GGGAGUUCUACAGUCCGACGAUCGUAAUGGACGUCAACACUGCUUUACAAGAGGUGCUGAAGACCGCCCUCAUCCACGAUGGCCUAGCACGUGGCAUACGCGAAGCUGCCAAAGCCUUAGACAAGCGCCAAGCCCAUCUGUGUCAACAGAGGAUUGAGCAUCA | 0.288
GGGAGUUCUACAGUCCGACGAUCGAGUCGAGCAAACUUGAAACUACAGAAUAUCUUGCAGCCUCAGUGUUCACUUGCUUGGCGAUAGCAUUGGGGUUUUAUAGGUUCUGGAAGGAGAACUGACGAUGAUGCUGCCGCUGCUGCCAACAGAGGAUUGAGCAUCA | 0.155
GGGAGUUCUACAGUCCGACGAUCAGAAUCUUGGGACUGUUUUACUUAAUUGGUCAUUGAUAGCUUAACAAGCAUGGAGAUAAGAUUAGAAAUCUUGACAUCAACAGGUAUUAAGCAGAAAAAACCAUGGCCCAGAGUAUCCUGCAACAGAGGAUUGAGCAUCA | 0.114
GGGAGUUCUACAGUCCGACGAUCCUCAGAGAUGUGGCAUAUCAGUAUGUGAAAAAGGGGGCUCGUAUAUUUUUGGAAGGGAAAGUGGACUAUGGCGAGUACAUGGAUAAAAACAAUGUGAGGCGGCAAGCAACAACAAUCAUACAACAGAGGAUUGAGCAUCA | 0.362
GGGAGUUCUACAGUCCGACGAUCCCCUCCCCGGGCCACCCACCCCUCCCGGCUCCCCGCCGAGAUCCAGGUUUCUUCUUAUUUCAUAGCCAAUAAGAAAAAUGUUCUACGCACAUUUUGUCCUCAGUAAAAGAGGGCCUCUGGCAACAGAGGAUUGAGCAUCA | 0.881
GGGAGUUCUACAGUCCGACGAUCAAAGUGAUAACCAUGUUUGUCCAACGACAGGUAUUUUCGGAGAGCAAGGAUGAGAUUGCGUUAGUCCUCUAUGGCACAGAUGGCACUGAUAAUGCCCUUGCUGGCAAGGACCAGUAUCAGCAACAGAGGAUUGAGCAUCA | 0.11
